# Experimental data of several laboratories.
# Lines come from different studies, so protocols differ. ± marks the error that the study gave.
# Organism: Enterococcus faecium
Compound,assay,test system,setting,MIC
CCOC(=O)c1ccc2c(c1)n(CC)[c]([Au-][Cl])[n+]2CC,broth dilution,DSM 20477,"20 h, 37 °C",5.6 ± 2.4 µM
CNC(CC(C)C)C(=O)NC1C(=O)NC(CC(N)=O)C(=O)NC2C(=O)NC3C(=O)NC(C(=O)NC(C(=O)NCCCCNC(=N)N)c4cc(O)cc(O)c4-c4cc3ccc4O)C(O)c3ccc(c(Cl)c3)Oc3cc2cc(c3OC2OC(CO)C(O)C(O)C2OC2CC(C)(N)C(O)C(C)O2)Oc2ccc(cc2Cl)C1O (stereo not shown),broth microdilution,ATCC BAA-2317 VanA,,4 µg/mL
CC(C)C[C@H](NC(=O)[C@H](CC(N)=O)NC(=O)[C@H](CCCNC(=N)N)NC(=O)[C@@H](CC(C)C)NC(=O)[C@H](Cc1ccccc1)NC(=O)[C@H](CC(=O)O)NC(=O)[C@H](CCCCN)NC(=O)[C@@H](CC(C)C)NC(=O)[C@H](CCCNC(=N)N)NC(=O)[C@H](CCC(N)=O)NC(=O)[C@@H](NC(=O)[C@@H](CC(C)C)NC(=O)[C@H](CCCNC(=N)N)NC(=O)[C@H](CCCCN)NC(=O)[C@H](Cc1ccc(-c2ccccc2)cc1)NC(=O)CN)C(C)C)C(=O)N[C@H](C(N)=O)C(C)C,broth microdilution,ATCC 51559,,12.5 µM
CNC(CC(C)C)C(=O)NC1C(=O)NC(CC(N)=O)C(=O)NC2C(=O)NC3C(=O)NC(C(=O)NC(C(=O)NCCCNC(=N)N)c4cc(O)cc(O)c4-c4cc3ccc4O)C(O)c3ccc(c(Cl)c3)Oc3cc2cc(c3OC2OC(CO)C(O)C(O)C2OC2CC(C)(N)C(O)C(C)O2)Oc2ccc(cc2Cl)C1O (stereo not shown),,ATCC BAA-2317 VanA,with: +LTA 100 µg/mL,8 µg/mL
CN(C)Cc1cc(N(C)C)c2c(c1O)C(=O)C1=C(O)[C@]3(O)C(=O)C(C(N)=O)=C(O)[C@@H](N(C)C)[C@@H]3C[C@@H]1C2,,"494, Tet M and Tet L",,1 µg/mL
C=C(NC(=O)C(=C)NC(=O)c1csc(C2=NC3c4csc(n4)C4NC(=O)c5csc(n5)C(C(C)(O)C(C)O)NC(=O)C5CSC(=N5)C(=CC)NC(=O)C(C(C)O)NC(=O)c5csc(n5)C3(CC2)NC(=O)C(C)NC(=O)C(=C)NC(=O)CNC(=O)C(C(C)CC)NC2C=Cc3c(C(C)O)cc(nc3C2O)C(=O)OC4C)n1)C(N)=O (stereo not shown),broth microdilution,ATCC 12952 VRE,"18 h, 37 °C",0.019 µg/mL
CN(C)c1cc(CNc2ccccc2)c(O)c2c1C[C@H]1C[C@H]3[C@H](N(C)C)C(O)=C(C(N)=O)C(=O)[C@@]3(O)C(O)=C1C2=O,,"494, Tet M and Tet L",,1 µg/mL
CNC(CC(C)C)C(=O)NC1C(=O)NC(CC(N)=O)C(=O)NC2C(=O)NC3C(=O)NC(C(=O)NC(C(=O)NCCCCCCNC(=N)N)c4cc(O)cc(O)c4-c4cc3ccc4O)C(O)c3ccc(c(Cl)c3)Oc3cc2cc(c3OC2OC(CO)C(O)C(O)C2OC2CC(C)(N)C(O)C(C)O2)Oc2ccc(cc2Cl)C1O (stereo not shown),broth microdilution,ATCC BAA-2317 VanA,,4 µg/mL
CN(C)c1cc(CN)c(O)c2c1C[C@H]1C[C@H]3[C@H](N(C)C)C(O)=C(C(N)=O)C(=O)[C@@]3(O)C(O)=C1C2=O,,"494, Tet M and Tet L",,> 64 µg/mL
CCc1[nH]c(C(=O)N[C@@H]2CCN(c3nnc(C(C)(C)O)s3)C[C@@H]2OC)nc1Cl,,EFM19-1,,0.5 µg/mL

# Repeated from above:
Compound,assay,test system,setting,MIC
CNC(CC(C)C)C(=O)NC1C(=O)NC(CC(N)=O)C(=O)NC2C(=O)NC3C(=O)NC(C(=O)NC(C(=O)NCCCNC(=N)N)c4cc(O)cc(O)c4-c4cc3ccc4O)C(O)c3ccc(c(Cl)c3)Oc3cc2cc(c3OC2OC(CO)C(O)C(O)C2OC2CC(C)(N)C(O)C(C)O2)Oc2ccc(cc2Cl)C1O (stereo not shown),,ATCC BAA-2317 VanA,with: +LTA 100 µg/mL,8 µg/mL
